Results pooled from the literature.
Numbered parts are unrelated; each lists some results of a single study. “And” joins repeats or separate records; there may be more than shown.

Block 1
Target: Interferon regulatory factor 5, full length, phosphomimetic (IRF5, Homo sapiens, UniProt Q13568-2, residues 1-514, S451D/S453D/S456D/S462D)
Method: protein-binding microarray
Form: double-stranded DNA, one strand shown
Medium: in vitro
Concentration: 940 nM top
Setting: 60-bp whole probe
With: salmon DNA 0.4 mg/ml
Relative to: random background probes
Reading: higher = stronger binding
Constant ends, left off below: GCCTAGCAC … GTCTTGATTCGCTTGACGCTGCTG
Strand	fitted relative affinity
TTAGACTTCAGTATCGATTAGTGCTAG	4.71 z-score
TCAGGTATCGGGACTGGGTTAGTGCTA	3.02 z-score
CACGATTTCAGTTCCGAGACGTGCTAG	0.917 z-score
GACGGACCGGGGTTTCGGGACGTGCTA	2.13 z-score
TAGTTTCTAAAACTCTTTATGTGCTAG	2.64 z-score
GACGAAGTGAGACTGGAGACGTGCTAG	-0.321 z-score
TTAGATCTCAGCATCGATTAGTGCTAG	0.0902 z-score

Block 2
Target: Histone acetyltransferase KAT6A, both winged helices, GST fusion (KAT6A, Homo sapiens, UniProt Q92794, residues 1-181)
Method: protein binding microarray
Form: double-stranded DNA, one strand shown
Medium: in vitro
Concentration: not given
Setting: 8-mer, flanks averaged, mean of 2 arrays, mostly near background
Relative to: not given
Reading: higher = stronger binding
Target sequence (chain): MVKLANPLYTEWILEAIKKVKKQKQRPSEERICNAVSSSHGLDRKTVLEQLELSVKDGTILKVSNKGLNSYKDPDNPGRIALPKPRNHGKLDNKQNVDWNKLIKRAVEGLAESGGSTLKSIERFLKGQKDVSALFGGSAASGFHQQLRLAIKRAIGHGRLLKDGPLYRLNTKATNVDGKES
Strand	E-score
GCACACGC	0.133
CGAAAAAA	-0.0187
CCACGTGG	-0.125
AGAGCAGG	-0.232
AGTTCTTC	0.00453
CCATAAGA	-0.103
CACTTCTC	-0.216
ACTACTAC	0.0111

Block 3
Target: RING finger protein unkempt homolog, zinc fingers 1-6, GST-SBP tag (UNK, Homo sapiens, UniProt Q9C0B0, residues 30-357)
UniProt Q9C0B0, sequence (30-357, looked up): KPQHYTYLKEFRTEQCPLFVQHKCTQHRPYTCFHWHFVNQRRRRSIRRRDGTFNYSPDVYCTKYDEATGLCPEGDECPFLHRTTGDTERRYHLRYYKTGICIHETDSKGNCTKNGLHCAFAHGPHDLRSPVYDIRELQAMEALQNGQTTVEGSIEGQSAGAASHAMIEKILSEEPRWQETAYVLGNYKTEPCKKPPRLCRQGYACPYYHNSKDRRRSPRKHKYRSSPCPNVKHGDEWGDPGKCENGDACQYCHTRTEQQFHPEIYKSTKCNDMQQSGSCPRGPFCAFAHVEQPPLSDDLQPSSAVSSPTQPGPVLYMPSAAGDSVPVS
Method: RNA Bind-n-Seq
Form: RNA
Medium: in vitro
Concentration: not given
Setting: RNA with constant flanks, human-mouse chimeric sites, ends assumed
Relative to: input RNA pool
Reading: higher = stronger binding
Strand	bound/input enrichment
GGGAGUUCUACAGUCCGACGAUCAUAUUUCAUAUUGCAAAGAUGUUUACAAGUAUUUUAAUUUAAGUUCAGUGAACUUUUUUGUAGCUGGGUUAAAUCUUUUUAUUUUAGGUAUGGCCUUAUGGCAAAGACACUGUAUUAUUUCAACAGAGGAUUGAGCAUCA	2.3 ratio
GGGAGUUCUACAGUCCGACGAUCAUUCCGAUUAUGGACACCGGUGAAAACCCAGAGGUUCCCUUCCCUCGGGACAUGAUUGACUUAGAGGCCAAUUUUGAGAAGAUUGAAAAUGAACUGAAGGAAAUCAACACUAACCAGGAACAACAGAGGAUUGAGCAUCA	0.122 ratio
GGGAGUUCUACAGUCCGACGAUCGAUCCACAGUGGUCUGAGGAACAGCUGAUUGCUGCAAAAUUCUGUUUUGCUGGACUUGUUAUAGGGCAGACUGAAGUGGACAUCAUGAGUCAUGCCACACAAGCUAUUUUUGAAAUUCUGCAACAGAGGAUUGAGCAUCA	0.227 ratio
GGGAGUUCUACAGUCCGACGAUCCUGAGGAUACCACUGAAAGAGACAUUAAAGAAUCAUUUGAGGGCUCUGUUCGUGCAAGAAUAGUCACUGAUCGGGAAACUGGUUCUUCCAAAGGGUUUGGUUUUGUAGACUUUAAUAGUGCAACAGAGGAUUGAGCAUCA	1.08 ratio

Single results of other studies
Molecule	target	test	system	setting	scale	endpoint	value
PhoQ, residues 284 288 289 292 302 303 SSTLSG	PhoP, residues 12 14 15 18 19 LWHSL (Escherichia coli, UniProt P23836)	Sort-seq, refers to: YFP reporter	E. coli	PhoQ-PhoP variant library, with: 10 µM Mg2+	relative to: high Mg2+ state, higher = stronger signaling	fold induction	10.8 and 4.31

Repeated from above (block 2):
Strand	E-score
GCACACGC	0.133
CGAAAAAA	-0.0187
CCACGTGG	-0.125
